Literature values, collected from citations in different studies.
Protocols differ between the studies behind these lines. ± gives the spread as reported.
B1: recombinant human GDNF; sequence looked up; chain SPDKQMAVLPRRERNRQAAAANPENSRGKGRRGQRGKNRGCVLTAIHLNVTDLGLGYETKEELIFRYCSGSCDAAETTYDKILKNLSRNRRLVSDKVGQACCRPIAFDDDLSFLDDNLVYHILRKHSAKRCGCI
Chain of UniProt P00698 (whole entry, looked up): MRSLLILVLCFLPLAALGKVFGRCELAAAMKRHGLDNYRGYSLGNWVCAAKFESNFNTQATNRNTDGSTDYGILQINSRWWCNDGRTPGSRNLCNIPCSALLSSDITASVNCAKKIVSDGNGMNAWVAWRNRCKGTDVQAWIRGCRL
Chain of UniProt P0ACD4 (whole entry, looked up): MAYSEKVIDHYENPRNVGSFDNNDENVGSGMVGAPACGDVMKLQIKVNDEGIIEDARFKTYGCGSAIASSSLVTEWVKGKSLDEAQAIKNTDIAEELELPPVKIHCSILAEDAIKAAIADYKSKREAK
Chain of UniProt P0AES9 (whole entry, looked up): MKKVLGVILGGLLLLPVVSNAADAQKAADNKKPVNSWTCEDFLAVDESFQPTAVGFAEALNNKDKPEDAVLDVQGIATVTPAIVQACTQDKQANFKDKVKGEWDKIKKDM
Chain of UniProt P31749 (whole entry, looked up): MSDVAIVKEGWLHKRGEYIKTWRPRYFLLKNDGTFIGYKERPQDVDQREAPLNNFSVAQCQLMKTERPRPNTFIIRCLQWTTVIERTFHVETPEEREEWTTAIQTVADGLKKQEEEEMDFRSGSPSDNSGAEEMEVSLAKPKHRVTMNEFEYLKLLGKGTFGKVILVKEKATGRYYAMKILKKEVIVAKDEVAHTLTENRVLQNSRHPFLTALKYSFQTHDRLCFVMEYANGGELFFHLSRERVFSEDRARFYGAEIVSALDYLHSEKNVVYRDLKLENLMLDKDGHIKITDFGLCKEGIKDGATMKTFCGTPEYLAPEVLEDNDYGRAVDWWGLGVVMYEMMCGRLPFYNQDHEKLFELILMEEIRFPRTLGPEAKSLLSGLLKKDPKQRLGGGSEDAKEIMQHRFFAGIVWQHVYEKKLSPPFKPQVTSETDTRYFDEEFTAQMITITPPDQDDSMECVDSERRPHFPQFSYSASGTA
Chain of UniProt P33033 (whole entry, looked up): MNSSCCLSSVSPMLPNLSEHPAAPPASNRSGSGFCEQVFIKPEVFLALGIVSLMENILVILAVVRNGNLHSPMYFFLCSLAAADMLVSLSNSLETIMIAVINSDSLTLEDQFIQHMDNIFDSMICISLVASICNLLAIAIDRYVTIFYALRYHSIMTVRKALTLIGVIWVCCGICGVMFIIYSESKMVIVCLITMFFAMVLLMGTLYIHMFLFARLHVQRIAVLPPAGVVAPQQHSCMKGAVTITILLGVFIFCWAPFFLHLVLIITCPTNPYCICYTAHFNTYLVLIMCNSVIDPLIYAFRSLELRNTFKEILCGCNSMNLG
Chain of UniProt P07949 (whole entry, looked up): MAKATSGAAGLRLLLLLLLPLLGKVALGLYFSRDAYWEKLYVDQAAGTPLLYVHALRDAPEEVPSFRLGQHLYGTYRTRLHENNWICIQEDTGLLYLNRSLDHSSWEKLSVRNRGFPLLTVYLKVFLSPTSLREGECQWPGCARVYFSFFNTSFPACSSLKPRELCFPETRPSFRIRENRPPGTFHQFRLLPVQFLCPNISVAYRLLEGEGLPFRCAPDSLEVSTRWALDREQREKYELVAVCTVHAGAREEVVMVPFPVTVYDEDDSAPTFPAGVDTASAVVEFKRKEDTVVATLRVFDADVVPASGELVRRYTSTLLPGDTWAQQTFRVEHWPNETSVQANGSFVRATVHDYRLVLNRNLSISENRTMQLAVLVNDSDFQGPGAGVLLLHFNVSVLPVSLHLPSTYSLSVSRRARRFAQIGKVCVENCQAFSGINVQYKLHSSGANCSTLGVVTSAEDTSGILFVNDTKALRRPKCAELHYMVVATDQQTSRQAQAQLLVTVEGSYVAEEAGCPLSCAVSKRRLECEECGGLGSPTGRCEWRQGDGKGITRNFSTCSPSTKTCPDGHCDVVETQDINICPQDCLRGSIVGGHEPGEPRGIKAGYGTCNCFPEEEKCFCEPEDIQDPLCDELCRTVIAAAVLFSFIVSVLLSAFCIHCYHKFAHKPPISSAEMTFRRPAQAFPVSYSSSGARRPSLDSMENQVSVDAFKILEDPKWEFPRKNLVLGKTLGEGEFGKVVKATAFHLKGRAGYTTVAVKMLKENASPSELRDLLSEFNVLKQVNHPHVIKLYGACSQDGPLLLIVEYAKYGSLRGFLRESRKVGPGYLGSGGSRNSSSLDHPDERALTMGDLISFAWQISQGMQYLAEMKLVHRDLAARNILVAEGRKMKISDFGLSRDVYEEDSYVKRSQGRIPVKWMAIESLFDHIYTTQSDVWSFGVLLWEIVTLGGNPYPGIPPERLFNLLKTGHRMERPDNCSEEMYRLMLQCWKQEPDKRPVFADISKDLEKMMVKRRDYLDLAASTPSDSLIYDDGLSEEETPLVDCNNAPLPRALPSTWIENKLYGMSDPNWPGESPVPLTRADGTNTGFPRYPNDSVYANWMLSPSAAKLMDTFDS

Molecule | tested on | assay | system | conditions | quantity | value
LYZ (Gallus gallus, UniProt P00698) | – | NMR, refers to: Asp101 | – | NaCl 100 mM, numbering of the source | pKa | 4.5
C[C@]12CC[C@@H]3c4ccc(O)cc4CC[C@H]3[C@@H]1CC[C@@H]2OC(=O)c1ccccc1 | HT-22 | cell protection | – | added: iodoacetic acid 40 µM | EC50 | 8810 nM
FGF-1 | Schwann cells | – | – | added: 5 to 10 µM forskolin | doubling time | 1 to 2 days
O=C(Nc1cccc2cccnc12)c1ccc(N2C(=O)[C@@H]3[C@H](C2=O)[C@@H]2C=C[C@H]3C2)cc1 | H9 hESC MYH6-mCherry reporter | cardiomyocyte differentiation | – | – | maximal efficacious concentration | 4 µM
MKVIFLKDVKGKGKKGEIKNVA (rplI NTL9 residues 1-22 (Geobacillus stearothermophilus)) | – | NMR, refers to: Asp8 | peptide | – | pKa | 3.66
CN(C)c1ccc2nc3ccc(=[N+](C)C)cc-3sc2c1 | cell model | tau aggregation | – | – | Ki | 120 nM
CC(=O)c1cccc(N[C@H]2[C@H](N)[C@@](NC(=O)N(C)C)([C@H](C)O)[C@@](C)(O)[C@@]2(O)COC(=O)c2c(C)cccc2O)c1 | DU-145 (prostate cancer) | cell growth | – | NCI screen data | GI50 | < 10 nM
C[C@]12CC[C@@H]3c4ccc(O)cc4CC[C@H]3[C@@H]1CC1(CCCC1)C2=O | HT-22 | cell protection | – | added: iodoacetic acid 40 µM | EC50 | 8260 nM
insulin glulisine | – | refers to: total insulin | human | subcutaneous upper arm, 0.2 U/kg, dose-adjusted from 0.1 U/kg | Cmax | 0.821 nM
C[C@]12CC[C@@H]3c4cc(C56CC7CC(CC(C7)C5)C6)c(O)cc4CC[C@H]3[C@@H]1CC[C@@H]2O | HT-22 | cell protection | – | added: iodoacetic acid 20 µM | EC50 | 120 nM
CNC(=O)c1cc(Oc2ccc(NC(=O)Nc3ccc(Cl)c(C(F)(F)F)c3)cc2)ccn1 | NCI Breast cancer cell panel | – | – | mean graph midpoint | GI50 | 2330 nM
hdeA mature protein (Escherichia coli, UniProt P0AES9) | – | NMR, refers to: Glu81 | – | 298 K, numbering of the source | pKa | 4.23
PACAP-27 | NCI-H838 | – | – | NG | phosphatidylinositol turnover | increased
C[C@@]12CC=C3c4ccc(O)cc4CC[C@@H]3[C@H]1CC[C@H]2O | HT-22 | cell protection | – | added: glutamate 10 mM | EC50 | 488 nM
NC(=S)NN=Cc1ncccc1N | tumour cell line panel | cell growth | – | 48 h | GI50 | 1600 nM
Cc1ccc(C(=O)Nc2ccc(CN3CCN(C)CC3)c(C(F)(F)F)c2)cc1C#Cc1cnc2cccnn12 | Ba/F3 expressing BCR-ABL | emergence of secondary mutations incl. T315I | – | – | concentration suppressing resistance | 40 nM
B1 (recombinant human GDNF) | Proto-oncogene tyrosine-protein kinase receptor Ret (RET, Homo sapiens, UniProt P07949) | RET phosphorylation, activator | – | – | minimal effective concentration | ≥ 50 ng/mL
VVIA | differentiated PC-12 | Aβ42-induced toxicity, inhibitor, MTT | peptide | 10-fold excess over Aβ42, 15 h, added: Aβ42 5 µM | viability | 89 ± 5%
RXVF (N-acetyl, Abz residue, C-benzyl) | RAC-alpha serine/threonine-protein kinase (AKT1, Homo sapiens, UniProt P31749) | inhibitor | – | – | IC50 | 119000 ± 36000 nM
COC(=O)c1ccc(CCc2cc(O)ccc2O)cc1 | NCI-60 panel | cell growth | – | – | GI50 | 7970 nM
CVRLHESCLGQQVPCCDPCATCYCRFFNAFCYCR (agouti-related protein (87–120); sequence looked up) | Melanocortin receptor 3 (Mus musculus, UniProt P33033) | antagonist, cAMP | peptide | – | Ki | 7.9 nM
C[C@]12CC[C@@H]3c4ccc(O)cc4CC[C@H]3[C@@H]1CC[C@@H]2O | HT-22 | cell protection | – | added: iodoacetic acid 20 µM | EC50 | 2900 nM
GVVIA | differentiated PC-12 | Aβ42-induced toxicity, inhibitor, MTT | peptide | 10-fold excess over Aβ42, 15 h, added: Aβ42 5 µM | viability | 83 ± 3%
IscU apo (Escherichia coli, UniProt P0ACD4) | – | NMR, refers to: His105 | – | NaCl 150 mM, D-state, apo | pKa | 6.5

A few entries again:
Molecule | tested on | assay | system | conditions | quantity | value
CNC(=O)c1cc(Oc2ccc(NC(=O)Nc3ccc(Cl)c(C(F)(F)F)c3)cc2)ccn1 | NCI Breast cancer cell panel | – | – | mean graph midpoint | GI50 | 2330 nM
CN(C)c1ccc2nc3ccc(=[N+](C)C)cc-3sc2c1 | cell model | tau aggregation | – | – | Ki | 120 nM
C[C@]12CC[C@@H]3c4cc(C56CC7CC(CC(C7)C5)C6)c(O)cc4CC[C@H]3[C@@H]1CC[C@@H]2O | HT-22 | cell protection | – | added: iodoacetic acid 20 µM | EC50 | 120 nM
